Measured values collected from several papers.
Numbers after ± are the reported error.
PIK3CD: Phosphatidylinositol 4,5-bisphosphate 3-kinase catalytic subunit delta isoform (PIK3CD, Homo sapiens, UniProt O00329)
DNA dC->dU-editing enzyme APOBEC-3B: DNA dC->dU-editing enzyme APOBEC-3B (Homo sapiens, UniProt Q9UH17)
Chain of UniProt Q9UH17 (whole entry, looked up): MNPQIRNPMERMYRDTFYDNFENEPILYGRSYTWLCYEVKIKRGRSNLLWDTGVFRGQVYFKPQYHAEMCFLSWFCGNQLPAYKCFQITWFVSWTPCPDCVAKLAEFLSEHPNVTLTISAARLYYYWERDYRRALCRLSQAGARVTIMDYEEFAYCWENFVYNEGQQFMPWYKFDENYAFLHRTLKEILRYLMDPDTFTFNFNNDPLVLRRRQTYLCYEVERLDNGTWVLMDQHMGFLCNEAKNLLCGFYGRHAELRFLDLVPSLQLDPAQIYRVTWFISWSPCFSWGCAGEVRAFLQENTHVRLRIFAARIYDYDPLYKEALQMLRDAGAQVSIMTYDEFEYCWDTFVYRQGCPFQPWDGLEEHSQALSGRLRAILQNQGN
NNMT: Nicotinamide N-methyltransferase (NNMT, Homo sapiens, UniProt P40261)
Chain of UniProt P40261 (whole entry, looked up): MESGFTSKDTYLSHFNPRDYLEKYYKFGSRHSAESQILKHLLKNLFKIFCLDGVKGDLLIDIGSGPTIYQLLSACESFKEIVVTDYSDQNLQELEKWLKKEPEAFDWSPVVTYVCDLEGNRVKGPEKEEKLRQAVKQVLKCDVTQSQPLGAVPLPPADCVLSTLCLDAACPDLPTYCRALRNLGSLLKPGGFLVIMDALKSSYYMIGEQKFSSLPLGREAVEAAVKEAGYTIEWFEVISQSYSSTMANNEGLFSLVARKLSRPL
ppa: Inorganic pyrophosphatase (ppa, Escherichia coli, UniProt P0A7A9)
Chain of UniProt P0A7A9 (whole entry, looked up): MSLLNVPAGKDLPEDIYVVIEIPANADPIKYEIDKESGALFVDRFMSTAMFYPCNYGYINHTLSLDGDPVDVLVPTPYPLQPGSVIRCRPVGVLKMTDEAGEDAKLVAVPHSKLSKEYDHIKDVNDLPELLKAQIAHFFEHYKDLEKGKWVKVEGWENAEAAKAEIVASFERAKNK
MAOB: Amine oxidase [flavin-containing] B (MAOB, Homo sapiens, UniProt P27338)
NTSR1: Neurotensin receptor type 1 (NTSR1, Homo sapiens, UniProt P30989)
Chain of UniProt P30989 (whole entry, looked up): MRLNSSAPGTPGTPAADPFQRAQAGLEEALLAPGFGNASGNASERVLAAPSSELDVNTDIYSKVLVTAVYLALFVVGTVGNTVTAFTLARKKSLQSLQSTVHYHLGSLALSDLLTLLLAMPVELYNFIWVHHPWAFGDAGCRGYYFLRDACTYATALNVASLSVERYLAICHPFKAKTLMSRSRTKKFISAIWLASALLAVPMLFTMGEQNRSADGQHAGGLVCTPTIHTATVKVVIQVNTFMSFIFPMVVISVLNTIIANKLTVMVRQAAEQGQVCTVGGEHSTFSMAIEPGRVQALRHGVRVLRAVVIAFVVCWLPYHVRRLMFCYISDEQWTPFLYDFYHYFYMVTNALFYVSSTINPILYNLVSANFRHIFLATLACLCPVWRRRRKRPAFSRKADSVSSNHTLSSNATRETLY
JAK1: Tyrosine-protein kinase JAK1 (JAK1, Homo sapiens, UniProt P23458)
Chain of UniProt P23458 (whole entry, looked up): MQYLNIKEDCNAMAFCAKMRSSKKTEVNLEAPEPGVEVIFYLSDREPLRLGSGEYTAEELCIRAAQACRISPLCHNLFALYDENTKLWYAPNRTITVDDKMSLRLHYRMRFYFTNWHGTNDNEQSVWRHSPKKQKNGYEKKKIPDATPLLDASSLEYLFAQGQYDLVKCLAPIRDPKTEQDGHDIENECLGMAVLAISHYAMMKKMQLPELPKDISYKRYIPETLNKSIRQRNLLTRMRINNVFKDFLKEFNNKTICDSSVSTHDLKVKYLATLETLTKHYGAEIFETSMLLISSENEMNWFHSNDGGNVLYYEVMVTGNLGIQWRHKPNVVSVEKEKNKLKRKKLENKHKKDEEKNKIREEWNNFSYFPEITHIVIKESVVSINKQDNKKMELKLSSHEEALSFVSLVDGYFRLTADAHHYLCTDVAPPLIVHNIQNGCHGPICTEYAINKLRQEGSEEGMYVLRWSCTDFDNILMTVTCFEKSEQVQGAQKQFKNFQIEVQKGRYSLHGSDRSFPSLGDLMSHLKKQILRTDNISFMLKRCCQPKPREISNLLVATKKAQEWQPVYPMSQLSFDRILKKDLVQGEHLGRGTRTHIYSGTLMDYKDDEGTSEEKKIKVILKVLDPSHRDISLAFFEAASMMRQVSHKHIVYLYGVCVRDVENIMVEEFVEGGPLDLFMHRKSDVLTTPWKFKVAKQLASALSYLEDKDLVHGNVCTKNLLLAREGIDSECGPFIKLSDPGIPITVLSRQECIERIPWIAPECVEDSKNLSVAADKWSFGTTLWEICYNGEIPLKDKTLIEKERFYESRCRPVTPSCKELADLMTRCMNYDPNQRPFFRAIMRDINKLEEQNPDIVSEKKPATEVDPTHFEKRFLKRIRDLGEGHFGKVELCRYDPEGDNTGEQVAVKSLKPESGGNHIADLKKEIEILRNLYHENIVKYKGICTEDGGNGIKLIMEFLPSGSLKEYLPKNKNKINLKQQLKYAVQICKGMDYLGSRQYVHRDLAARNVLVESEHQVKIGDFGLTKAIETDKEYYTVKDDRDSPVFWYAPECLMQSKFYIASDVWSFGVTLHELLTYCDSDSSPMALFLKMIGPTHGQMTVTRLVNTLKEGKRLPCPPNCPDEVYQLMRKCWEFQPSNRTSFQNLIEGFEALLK
CYP2C19: Cytochrome P450 2C19 (CYP2C19, Homo sapiens, UniProt P33261)
Chain of UniProt P33261 (whole entry, looked up): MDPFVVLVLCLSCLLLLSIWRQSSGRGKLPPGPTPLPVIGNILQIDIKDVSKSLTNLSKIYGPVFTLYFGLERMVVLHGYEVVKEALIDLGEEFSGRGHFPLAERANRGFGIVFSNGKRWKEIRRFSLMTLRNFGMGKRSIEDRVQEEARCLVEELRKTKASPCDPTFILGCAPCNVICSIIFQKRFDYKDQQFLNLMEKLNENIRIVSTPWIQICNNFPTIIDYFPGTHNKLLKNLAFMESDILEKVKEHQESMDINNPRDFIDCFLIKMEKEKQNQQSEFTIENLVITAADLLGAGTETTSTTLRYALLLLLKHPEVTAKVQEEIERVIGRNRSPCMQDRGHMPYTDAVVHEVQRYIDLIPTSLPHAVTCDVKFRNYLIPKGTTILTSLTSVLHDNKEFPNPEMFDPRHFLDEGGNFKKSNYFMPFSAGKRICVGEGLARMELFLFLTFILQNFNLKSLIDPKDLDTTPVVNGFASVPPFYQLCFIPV
DNA dC->dU-editing enzyme APOBEC-3B C-terminal domain: DNA dC->dU-editing enzyme APOBEC-3B, C-terminal domain (Homo sapiens, UniProt Q9UH17)
SLC7A5: Large neutral amino acids transporter small subunit 1 (SLC7A5, Homo sapiens, UniProt Q01650)
Chain of UniProt Q01650 (whole entry, looked up): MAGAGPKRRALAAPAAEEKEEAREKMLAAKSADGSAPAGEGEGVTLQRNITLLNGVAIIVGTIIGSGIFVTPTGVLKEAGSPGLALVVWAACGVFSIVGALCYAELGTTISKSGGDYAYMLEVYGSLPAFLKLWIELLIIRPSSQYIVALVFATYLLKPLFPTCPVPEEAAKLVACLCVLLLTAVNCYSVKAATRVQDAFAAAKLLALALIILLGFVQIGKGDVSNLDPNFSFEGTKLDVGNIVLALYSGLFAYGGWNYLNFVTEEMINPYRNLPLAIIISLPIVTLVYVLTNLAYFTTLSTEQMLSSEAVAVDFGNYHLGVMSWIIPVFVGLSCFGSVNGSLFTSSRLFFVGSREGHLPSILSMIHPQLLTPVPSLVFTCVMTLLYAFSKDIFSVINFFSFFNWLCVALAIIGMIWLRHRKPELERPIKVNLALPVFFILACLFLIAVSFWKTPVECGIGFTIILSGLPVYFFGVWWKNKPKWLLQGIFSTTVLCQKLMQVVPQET
glpG: Rhomboid protease GlpG (glpG, Escherichia coli, UniProt P09391)
Chain of UniProt P09391 (whole entry, looked up): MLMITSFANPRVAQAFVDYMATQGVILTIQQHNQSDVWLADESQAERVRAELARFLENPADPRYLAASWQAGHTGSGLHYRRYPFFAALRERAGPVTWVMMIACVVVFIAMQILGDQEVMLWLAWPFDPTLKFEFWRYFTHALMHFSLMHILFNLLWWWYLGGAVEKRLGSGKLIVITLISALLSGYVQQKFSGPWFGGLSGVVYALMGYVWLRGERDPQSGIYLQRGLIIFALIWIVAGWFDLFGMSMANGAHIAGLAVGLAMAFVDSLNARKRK
Gria1: Glutamate receptor 1 (Gria1, Rattus norvegicus, UniProt P19490)
Chain of UniProt P19490 (whole entry, looked up): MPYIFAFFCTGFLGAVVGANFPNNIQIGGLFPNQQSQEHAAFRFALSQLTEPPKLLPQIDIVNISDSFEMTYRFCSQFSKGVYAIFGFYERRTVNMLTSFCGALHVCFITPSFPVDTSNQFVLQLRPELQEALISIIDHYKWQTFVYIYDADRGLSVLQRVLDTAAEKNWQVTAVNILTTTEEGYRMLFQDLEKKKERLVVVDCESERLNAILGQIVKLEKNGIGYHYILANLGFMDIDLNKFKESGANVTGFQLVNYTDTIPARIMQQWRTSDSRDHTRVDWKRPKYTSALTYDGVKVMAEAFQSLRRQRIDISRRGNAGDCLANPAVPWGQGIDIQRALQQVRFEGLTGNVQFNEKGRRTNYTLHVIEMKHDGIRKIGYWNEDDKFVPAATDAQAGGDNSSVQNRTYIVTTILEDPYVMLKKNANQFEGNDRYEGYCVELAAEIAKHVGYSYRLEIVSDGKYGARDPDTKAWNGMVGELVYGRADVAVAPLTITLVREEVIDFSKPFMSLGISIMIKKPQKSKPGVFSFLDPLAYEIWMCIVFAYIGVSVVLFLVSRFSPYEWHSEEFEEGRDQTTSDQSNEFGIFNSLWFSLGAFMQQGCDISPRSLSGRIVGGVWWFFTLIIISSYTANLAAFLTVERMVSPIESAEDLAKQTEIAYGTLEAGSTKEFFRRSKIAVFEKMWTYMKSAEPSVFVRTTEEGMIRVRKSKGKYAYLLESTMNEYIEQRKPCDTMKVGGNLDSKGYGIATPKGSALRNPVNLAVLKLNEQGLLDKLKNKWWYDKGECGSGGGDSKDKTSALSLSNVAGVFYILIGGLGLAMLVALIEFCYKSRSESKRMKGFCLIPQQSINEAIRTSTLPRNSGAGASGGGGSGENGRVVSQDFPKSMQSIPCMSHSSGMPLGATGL
Uncharacterized protein: Uncharacterized protein (Trypanosoma brucei brucei, UniProt Q386Q8)
ADRB2: Beta-2 adrenergic receptor (ADRB2, Homo sapiens, UniProt P07550)
Chain of UniProt P07550 (whole entry, looked up): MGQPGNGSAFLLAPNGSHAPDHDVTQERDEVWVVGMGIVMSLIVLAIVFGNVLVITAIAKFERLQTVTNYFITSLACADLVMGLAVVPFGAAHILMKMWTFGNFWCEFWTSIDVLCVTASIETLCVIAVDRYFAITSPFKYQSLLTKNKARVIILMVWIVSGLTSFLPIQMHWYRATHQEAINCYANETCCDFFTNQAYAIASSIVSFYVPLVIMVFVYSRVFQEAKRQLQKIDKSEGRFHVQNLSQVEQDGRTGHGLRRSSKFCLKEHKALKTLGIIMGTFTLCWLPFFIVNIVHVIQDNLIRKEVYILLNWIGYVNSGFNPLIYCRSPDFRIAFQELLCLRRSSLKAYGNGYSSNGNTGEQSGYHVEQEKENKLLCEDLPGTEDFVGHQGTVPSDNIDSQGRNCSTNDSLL
OfChi-h: Chitinase (OfChi-h, Ostrinia furnacalis, UniProt Q4AE59)

O=C1C(Nc2ccc(Cl)cc2)c2ccccc2N1Cc1ccccc1 (stereo not drawn)
IC50 (PIK3CD; enzyme activity, inhibitor, ADP detection): 0.0348 µM

COc1ccc(-c2ccc(C(=O)N(C)CCO)cc2)c(OC)c1
IC50 (DNA dC->dU-editing enzyme APOBEC-3B; enzyme activity, inhibitor, HPLC): 338 µM

COc1ccnc(C)c1C
IC50 (NNMT; enzyme activity in cells, inhibitor): > 31.6 µM

COc1ccccc1/C=C1\C(=O)Nc2ccc(Nc3nc(C)nc4ccccc34)cc21
IC50 (PIK3CD; enzyme activity, inhibitor, ADP detection): > 1 µM

COc1ccc2c(c1OC)C(=O)N(c1cccc(NC(C)=O)c1)C2
IC50 (ppa; enzyme activity, inhibitor): > 100 µM

CCOc1ccc(C(=O)/C=C/c2ccc(C(C)C)cc2)cc1
IC50 (MAOB; enzyme activity, inhibitor): 0.663 µM

COc1ccccc1C1CCN(c2nc(C3(C(F)(F)F)CCCC3)nc3ccc(N(C)CCO)cc23)CC1
IC50 (NTSR1; G protein activation, antagonist, BRET): 0.882 µM

CC[C@@H]1CN(C(=O)NCC(F)(F)F)C[C@@H]1Nc1c(C(F)(F)F)cnc2[nH]ccc12
IC50 (JAK1; enzyme activity, inhibitor, ADP detection): 0.00503 µM

CC(C)(C)n1ncc2c(=O)n(Cc3cccc(F)c3)c(NCc3ccc(F)cn3)nc21
IC50 (CYP2C19; enzyme activity, inhibitor; human liver): > 15 µM

OC1CCCN(CCCNc2cc(-c3ccccc3)nc3ccnn23)C1 (stereo not drawn)
IC50 (DNA dC->dU-editing enzyme APOBEC-3B C-terminal domain; deaminase activity, inhibitor, UDG-coupled deamination): 112 ± 6 µM

Cc1[nH]nc2c1N=C(c1ccccc1Cl)c1cnc(N3CCOCC3)cc1N2
IC50 (CYP2C19; enzyme activity, inhibitor; human, liver microsomes): > 10 µM

N[C@@H](Cc1c[nH]c2ccc(OCc3ccc(-c4ccoc4)cc3)cc12)C(=O)O
IC50 (SLC7A5; transporter uptake, inhibitor, radiometric): 25.6 µM

CC1C(=O)N(S(=O)(=O)c2ccc(C#N)cc2)C1c1ccccc1 (racemic)
IC50 (glpG; enzyme activity, inhibitor): 2 µM

Cc1cnc(Nc2ccc3c(c2)CCN(C(=O)/C=C/C(=O)C2CCC(C)CC2)C3)nc1-c1cnn(C(C)C)c1 (stereo not drawn)
IC50 (JAK1; enzyme activity, inhibitor, ADP detection): > 0.03 µM

CC(=O)NC1C(=O)N(c2ccccc2)N=C1C (stereo not drawn)
IC50 (ppa; inhibitor, counter-screen, coupling enzyme alone): 33.7 µM

COc1ccc(Nc2cc(NC3CC3)n3ncc(C#N)c3n2)cc1
IC50 (Serine/threonine-protein kinase Sgk3 (SGK3, Homo sapiens, UniProt Q96BR1); inhibitor): > 10 µM

Cc1nn(-c2cccc(N)c2)c(=O)c2cnc(Nc3ccc(N4CCNCC4)cc3)nc12
IC50 (Tyrosine-protein kinase ZAP-70 (ZAP70, Homo sapiens, UniProt P43403); enzyme activity, inhibitor): > 10 µM

COC(CC1C(C)=CCC2C1(C)CCC1C(C)(C)C(O)C(O)CC12C)C(N)C(=O)O (stereo not drawn)
IC50 (SLC7A5; transporter uptake): 0.46 µM

O=C(O)Cc1cc2c(cc1C(=O)c1ccccc1Br)OCO2
IC50 (Gria1; glutamate-evoked current, inhibitor, whole-cell patch clamp; HEK293T, homomeric receptor): 4.68 µM

COc1ccc(Br)cc1C[N+](C)(C)CCCN1c2ccccc2CCc2ccc(Cl)cc21
IC50 (Uncharacterized protein; enzyme activity, inhibitor, coupled colorimetric; added: E. coli pyrophosphatase coupling): 36.6 µM

O=C1c2cc(O)cc(O)c2C(=O)c2c(O)cc(CO)cc21
IC50 (MAOB; enzyme activity, inhibitor): 21.7 µM

CC1CCC2(C(=O)O)CCC3(C)C(=CCC4C5(C)CCC(OC(=O)CCC(=O)O)C(C)(C)C5CCC43C)C2C1C (stereo not drawn)
IC50 (UDP-glucuronosyltransferase 1A4 (UGT1A4, Homo sapiens, UniProt P22310); enzyme activity, inhibitor; human, liver microsomes): 6.39 µM

CCC1(O)CCCN(C(=O)c2ccc(-c3ccc(F)c(C(N)=O)c3)cc2)C1 (stereo not drawn)
IC50 (DNA dC->dU-editing enzyme APOBEC-3B C-terminal domain; deaminase activity, inhibitor, UDG-coupled deamination): 851 ± 38 µM

Cc1ccc2nc(Nc3ccc(F)c(F)c3)nc(NC3CCCCC3)c2c1
IC50 (ADRB2; cAMP production, antagonist, GloSensor; added: isoproterenol 1 µM): 17 ± 7 µM

O=C(CSc1nnc(-c2ccco2)c(-c2ccco2)n1)c1ccc(Cl)s1
IC50 (ppa; inhibitor, counter-screen, coupling enzyme alone): > 30 µM

CC1C(=O)N(C(=O)c2ccccc2)C1c1ccccc1 (racemic)
IC50 (glpG; enzyme activity, inhibitor): 5.2 µM

O=c1cc(-c2ccc(O)cc2)oc2c([C@@H]3OC[C@H](O)[C@H](O)[C@H]3O)c(O)c([C@@H]3O[C@H](CO)[C@@H](O)[C@H](O)[C@H]3O)c(O)c12
IC50 (Calcium/calmodulin-dependent protein kinase type II subunit delta (CAMK2D, Homo sapiens, UniProt Q13557); binding, LanthaScreen Eu binding; 19 h): 0.27 µM

O=C(Cc1ccc(OCc2ccccc2)cc1)NC1(C(=O)O)CCN(C(=O)c2ccc(-c3cccc(Cl)c3)cc2)CC1
IC50 (G-protein coupled receptor 55 (GPR55, Homo sapiens, UniProt Q9Y2T6); antagonist, GloSensor cAMP): > 10 µM

COc1ccccc1C1CCN(c2nc(C3(C(F)(F)F)CC3)nc3ccc(N(C)CCO)cc23)CC1
IC50 (NTSR1; G protein activation, antagonist): 0.185 µM

O=C1C(O)=C(O)C(=O)C(O)=C1O
IC50 (Protein tyrosine phosphatase type IVA 3, with CNNM4 CBS domain (PTP4A3, Homo sapiens, UniProt O75365); protein-protein interaction, inhibitor, HTRF): 2.4 µM

COc1ccc(C(=O)CC2(O)C(=O)Nc3ccc(C)cc32)cc1OC (stereo not drawn)
IC50 (Uncharacterized protein; inhibitor, coupled colorimetric; Trypanosoma brucei): > 100 µM

Clc1cccc(CNc2nc(NC3CCCCC3)c3ccccc3n2)c1
IC50 (ADRB2; cAMP production, antagonist, GloSensor; added: isoproterenol 1 µM): 25 ± 4 µM

Cc1nnc(Nc2ccc(O)cc2)nc1O
IC50 (DNA dC->dU-editing enzyme APOBEC-3B; enzyme activity, inhibitor, HPLC): 131 µM

O=C1/C(=N\c2cccc(Cl)c2)c2ccccc2N1Cc1ccccc1
IC50 (PIK3CD; enzyme activity, inhibitor, ADP detection): 0.0736 µM

O=C(CCNC(=O)CNC(=O)CC(c1ccccc1)(c1ccccc1)c1ccccc1)NC[C@@H]1CCCN(Cc2ccc3cc(F)ccc3c2)C1
IC50 (Muscarinic acetylcholine receptor M3 (CHRM3, Homo sapiens, UniProt P20309); ligand displacement, radioligand; cell membranes): 0.9 µM

CCOc1cc(CN2CCC3(CC2)CN(c2ccc(C(=O)O)cc2)C(=O)N3)c(C2CC2)cc1C
IC50 (Somatostatin receptor type 5 (SSTR5, Homo sapiens, UniProt P35346, F201A); cAMP level, antagonist, GloSensor; AD293; F201A mutant, bandwidth 5.38, added: CST17 EC80 and forskolin): 0.00708 µM

COc1ccc(NC2(C#N)C(=O)Nc3ccccc32)cc1 (stereo not drawn)
IC50 (ppa; inhibitor, counter-screen, coupling enzyme alone): 27.2 µM

CN(C)c1nc(NCc2cccc3ccccc23)c(/N=N/c2ccc(Cl)cc2)c(N(C)C)n1
IC50 (OfChi-h; enzyme activity, inhibitor, fluorescence): 0.32 µM

N[C@@H](Cc1c[nH]c2ccc(OCc3ccccc3-c3ccco3)cc12)C(=O)O
IC50 (SLC7A5; transporter uptake, inhibitor, radiometric): 32.3 µM

COC(=O)Cc1cc2c(cc1C(=O)c1ccccc1Br)OCO2
IC50 (Gria1; ion current, patch clamp): 5.51 µM

CN(C)c1nc(NCc2ccc(-c3ccccc3)cc2)c(/N=N/c2ccc(Cl)cc2)c(N(C)C)n1
IC50 (OfChi-h; enzyme activity, inhibitor, fluorescence): 0.12 µM

CN1CCC[C@@H]1C(=O)N[C@@H](Cc1ccc(-c2ccccc2)cc1)B(O)O
IC50 (Proteasome component C5/PSMB5 (Homo sapiens, UniProt P20618+P28074); enzyme activity, inhibitor; Tris buffer, added: Ac-WLA-AMC, PA28αβ): 0.41 ± 0.02 µM

Cc1c(C)c(C)c(C[N+]2(C)CCN(CCCN3c4ccccc4Sc4ccc(Cl)cc43)CC2)c(C)c1C
IC50 (Uncharacterized protein; enzyme activity, inhibitor, coupled colorimetric; added: E. coli pyrophosphatase coupling): 35.6 µM

CNc1cc(CF)c(C(N)=O)cn1
IC50 (NNMT; enzyme activity, inhibitor): 0.2 µM

COc1ccccc1C1CCN(c2nc(C3CC3)nc3ccc(N(C)CCO)cc23)CC1
IC50 (NTSR1; G protein activation, antagonist): 1.14 µM

Clc1ccc(Nc2nc(NC3CCCCC3)c3ccccc3n2)cc1Cl
IC50 (ADRB2; cAMP production, antagonist, GloSensor; added: isoproterenol 1 µM): > 50 µM

COC(=O)Cc1cc2c(cc1C(=O)c1ccc(Cl)cc1Cl)OCO2
IC50 (Gria1; ion current, patch clamp): 4.98 µM

N[C@@H](Cc1c[nH]c2ccc(OCc3ccc(-c4ccco4)cc3)cc12)C(=O)O
IC50 (SLC7A5; transporter uptake, inhibitor, radiometric): 31.5 µM

CCN(CC)CC(=O)Nc1cccc(-n2cc(-c3ccc4ccc(-c5cn(-c6cccc(NC(=O)CN(CC)CC)c6)nn5)cc4c3)nn2)c1
IC50 (Proto-oncogene tyrosine-protein kinase Src (SRC, Homo sapiens, UniProt P12931); enzyme activity, inhibitor): > 10 µM

FC(F)(F)c1cccc(Nc2nc(NC3CCCCC3)c3ccccc3n2)c1
IC50 (ADRB2; cAMP production, antagonist, GloSensor; added: isoproterenol 1 µM): 9 ± 3 µM

Cc1cc(NC2CCN(C)CC2)ccc1-c1cc2c(N3CCC[C@H](C(=O)NCc4ccc(OC(F)(F)F)cc4)C3)ncnc2[nH]1
IC50 (JAK1; enzyme activity, inhibitor, mobility shift): > 8 µM

Clc1ccc(Nc2nc(NC3CCCCC3)c3ccccc3n2)cc1
IC50 (ADRB2; cAMP production, antagonist, GloSensor; added: isoproterenol 1 µM): > 50 µM

COc1ccc(C2=Nn3c(nnc3C3CCCCC3)SC2)cc1
IC50 (ppa; enzyme activity, inhibitor): > 100 µM

CCc1cc(NC)ncc1C(N)=O
IC50 (NNMT; enzyme activity in cells, inhibitor): 0.398 µM

Repeated from above:
Cc1nnc(Nc2ccc(O)cc2)nc1O
IC50 (DNA dC->dU-editing enzyme APOBEC-3B; enzyme activity, inhibitor, HPLC): 131 µM

O=C1/C(=N\c2cccc(Cl)c2)c2ccccc2N1Cc1ccccc1
IC50 (PIK3CD; enzyme activity, inhibitor, ADP detection): 0.0736 µM

O=C(CCNC(=O)CNC(=O)CC(c1ccccc1)(c1ccccc1)c1ccccc1)NC[C@@H]1CCCN(Cc2ccc3cc(F)ccc3c2)C1
IC50 (Muscarinic acetylcholine receptor M3 (CHRM3, Homo sapiens, UniProt P20309); ligand displacement, radioligand; cell membranes): 0.9 µM

CCOc1cc(CN2CCC3(CC2)CN(c2ccc(C(=O)O)cc2)C(=O)N3)c(C2CC2)cc1C
IC50 (Somatostatin receptor type 5 (SSTR5, Homo sapiens, UniProt P35346, F201A); cAMP level, antagonist, GloSensor; AD293; F201A mutant, bandwidth 5.38, added: CST17 EC80 and forskolin): 0.00708 µM

COc1ccc(NC2(C#N)C(=O)Nc3ccccc32)cc1 (stereo not drawn)
IC50 (ppa; inhibitor, counter-screen, coupling enzyme alone): 27.2 µM

CN(C)c1nc(NCc2cccc3ccccc23)c(/N=N/c2ccc(Cl)cc2)c(N(C)C)n1
IC50 (OfChi-h; enzyme activity, inhibitor, fluorescence): 0.32 µM

N[C@@H](Cc1c[nH]c2ccc(OCc3ccccc3-c3ccco3)cc12)C(=O)O
IC50 (SLC7A5; transporter uptake, inhibitor, radiometric): 32.3 µM
